Assay results from different studies.
Numbers after ± are the reported error.

Compound | test | system | conditions | scale | endpoint | result
N=C(N)NCCC[C@H](NC(=O)[C@H](Cc1c[nH]c2ccccc12)NC(=O)[C@H](CCC(N)=O)NC(=O)[C@H](Cc1c[nH]c2ccccc12)NC(=O)[C@H](CCCNC(=N)N)NC(=O)[C@H](CCCNC(=N)N)NC(=O)CCCCCNC(=O)/C=C/c1ccc(O)c(O)c1)C(N)=O | RP-HPLC, C18 column | – | – | higher is more hydrophobic | retention time | 5.1 min
CCCC[C@H](NC(=O)CNC(=O)CNC(=O)CN1CCN(CC(=O)O)CCN(CC(=O)O)CC1)C(=O)N[C@H]1CC(=O)NCCCC[C@@H](C(N)=O)NC(=O)[C@H](Cc2c[nH]c3ccccc23)NC(=O)[C@H](CCCNC(=N)N)NC(=O)[C@@H](Cc2ccccc2)NC(=O)[C@H](Cc2c[nH]cn2)NC1=O [technetium-99m labelled] | – | C57 mouse, heart | iv, 0.037 MBq, 0.5 h | – | tissue uptake | 0.74 ± 0.2 %ID/g
CCCC[C@H](NC(=O)COCCOCCNC(=O)CN1CCN(CC(=O)O)CCN(CC(=O)O)CC1)C(=O)N[C@H]1CC(=O)NCCCC[C@@H](C(N)=O)NC(=O)[C@H](Cc2c[nH]c3ccccc23)NC(=O)[C@H](CCCNC(=N)N)NC(=O)[C@@H](Cc2ccccc2)NC(=O)[C@H](Cc2c[nH]cn2)NC1=O [copper-64 labelled] | – | C57 mice, blood | intravenous, 0.37 MBq, 4 h | – | tissue uptake | 0.2 ± 0.03 %ID/g
COc1cc(/C=C/C(=O)NCCCCCC(=O)N[C@@H](CCCNC(=N)N)C(=O)N[C@@H](CC(C)C)C(=O)N[C@@H](CC(C)C)C(=O)N[C@@H](CCCNC(=N)N)C(=O)N[C@@H](CCCNC(=N)N)C(=O)N[C@@H](CC(C)C)C(=O)N[C@@H](CC(C)C)C(=O)N[C@@H](CCCNC(=N)N)C(N)=O)ccc1O | RP-HPLC, C18 column | – | – | higher is more hydrophobic | retention time | 6.7 min
CCCC[C@H](NC(=O)CNC(=O)CNC(=O)CN1CCN(CC(=O)O)CCN(CC(=O)O)CCN(CC(=O)O)CC1)C(=O)N[C@H]1CC(=O)NCCCC[C@@H](C(N)=O)NC(=O)[C@H](Cc2c[nH]c3ccccc23)NC(=O)[C@H](CCCNC(=N)N)NC(=O)[C@@H](Cc2ccccc2)NC(=O)[C@H](Cc2c[nH]cn2)NC1=O [lutetium-177 labelled] | – | C57 mouse, female, whole blood | intravenous, 0.037 MBq, 2 h | – | tissue uptake | 0.22 ± 0.14 %ID/g
C=C1CC[C@H](OCCCNC(=O)CCOCCOCCOCCOCCOCCOCCOCCOCCOCCOCCOCCOCCOCCOCCOCCOCCOCCOCCOCCOCCOCCOCCOCCOCCOCCOCCOCCOCCOCCOCCOCCOCCOCCOCCOCCOCCNC(=O)CCN2C(=O)CC(SC[C@H](NC(=O)[C@H](Cc3ccccc3)NC(=O)[C@H](CC(N)=O)NC(=O)[C@H](Cc3c[nH]cn3)NC(=O)[C@@H](NC(=O)[C@H](CC(=O)O)NC(=O)[C@H](CCC(N)=O)NC(=O)[C@H](CC(C)C)NC(=O)[C@H](CCCCN)NC(=O)[C@H](CCCCN)NC(=O)[C@H](CCCNC(=N)N)NC(=O)[C@H](CC(C)C)NC(=O)[C@H](Cc3c[nH]c4ccccc34)NC(=O)[C@H](CCC(=O)O)NC(=O)[C@@H](NC(=O)[C@H](CCCNC(=N)N)NC(=O)[C@H](CCC(=O)O)NC(=O)[C@H](CCSC)NC(=O)[C@H](CO)NC(=O)[C@H](CC(N)=O)NC(=O)[C@H](CC(C)C)NC(=O)[C@H](Cc3c[nH]cn3)NC(=O)[C@H](CCCCN)NC(=O)CNC(=O)[C@H](CC(C)C)NC(=O)[C@H](CC(N)=O)NC(=O)[C@H](Cc3c[nH]cn3)NC(=O)[C@H](CCSC)NC(=O)[C@H](CC(C)C)NC(=O)[C@H](CCC(N)=O)NC(=O)[C@@H](NC(=O)[C@H](CCC(=O)O)NC(=O)[C@H](CO)NC(=O)[C@@H](NC(=O)[C@@H](N)CO)C(C)C)[C@@H](C)CC)C(C)C)C(C)C)C(N)=O)C2=O)C/C1=C/C=C1\CCC[C@]2(C)[C@@H]([C@H](C)CCCC(C)(C)O)CC[C@@H]12 (stereo partly drawn) | – | Sprague Dawley rat | subcutaneous, 70 µg/kg daily, 21 days | reference: 1 µg/kg dose | dose-normalized Cmax | 4.74
CCCC[C@H](NC(=O)CCCCCCCNC(=O)CN1CCN(CC(=O)O)CCN(CC(=O)O)CC1)C(=O)N[C@H]1CC(=O)NCCCC[C@@H](C(N)=O)NC(=O)[C@H](Cc2c[nH]c3ccccc23)NC(=O)[C@H](CCCNC(=N)N)NC(=O)[C@@H](Cc2ccccc2)NC(=O)[C@H](Cc2c[nH]cn2)NC1=O [copper-64 labelled] | – | C57 mice, brain | intravenous, 0.37 MBq, 24 h | – | tissue uptake | 0.01 ± 0.01 %ID/g
O=C(O)CC[C@H](NC(=O)N[C@@H](CCCCNC(=O)CCCCC[C@H](NC(=O)CCS[C@@H]1O[C@H](CO)[C@H](O)[C@H](O)[C@H]1O)C(=O)NCCCC[C@@H](NC(=O)[C@@H](Cc1ccccc1)NC(=O)[C@@H](Cc1ccc(O)c(I)c1)NC(=O)CCC(C(=O)O)N1CCN(CC(=O)O)CCN(CC(=O)O)CCN(CC(=O)O)CC1)C(=O)O)C(=O)O)C(=O)O (stereo partly drawn) [gallium-68 labelled] | shake flask n-octanol/PBS | – | pH 7.4, radiolabelled compound | – | logP | -4.15 ± 0.07
N=C(N)NCCC[C@@H]1NC(=O)[C@H](CCCCNC(=O)CC[C@H](NC(=O)CCOCCOCCOCCOCCNC(=O)CN2CCN(CC(=O)O)CCN(CC(=O)O)CC2)C(=O)NCCCC[C@@H]2NC(=O)[C@@H](Cc3ccccc3)NC(=O)[C@H](CC(=O)O)NC(=O)CNC(=O)[C@H](CCCNC(=N)N)NC2=O)NC(=O)[C@@H](Cc2ccccc2)NC(=O)[C@H](CC(=O)O)NC(=O)CNC1=O [fluorine-18 labelled] | – | athymic nude mouse, female, MDA-MB-435 xenograft, tumour | intravenous, dose not given | – | tumour uptake | 2.73 ± 0.64 %ID/g
N=C(N)NCCC[C@@H]1NC(=O)[C@H](CCCCNC(=O)CC[C@H](NC(=O)CC[C@H](NC(=O)CN2CCN(CC(=O)O)CCN(CC(=O)O)CCN(CC(=O)O)CC2)C(=O)N[C@@H](CCC(=O)NCCCC[C@@H]2NC(=O)[C@@H](Cc3ccccc3)NC(=O)[C@H](CC(=O)O)NC(=O)CNC(=O)[C@H](CCCNC(=N)N)NC2=O)C(=O)NCCCC[C@@H]2NC(=O)[C@@H](Cc3ccccc3)NC(=O)[C@H](CC(=O)O)NC(=O)CNC(=O)[C@H](CCCNC(=N)N)NC2=O)C(=O)NCCCC[C@@H]2NC(=O)[C@@H](Cc3ccccc3)NC(=O)[C@H](CC(=O)O)NC(=O)CNC(=O)[C@H](CCCNC(=N)N)NC2=O)NC(=O)[C@@H](Cc2ccccc2)NC(=O)[C@H](CC(=O)O)NC(=O)CNC1=O [indium-111 labelled] | – | female athymic nu/nu mice, lungs | intravenous, 24 h | – | tissue uptake | 1.5 ± 0.39 %ID/g
N=C(N)NCCC[C@@H]1NC(=O)[C@H](CCCCNC(=O)CCC(C(=O)O)N2CCCN3CCN(CCCN(CC(=O)O)CC3)CC2)NC(=O)[C@@H](Cc2ccc(O)cc2)NC(=O)[C@H](CC(=O)O)NC(=O)CNC1=O (stereo partly drawn) [copper-64 labelled] | – | SCID mouse, PC-3 xenograft, tumour | iv, dose not given, 1 h | – | tumour uptake | 1.95 ± 0.1 %ID/g
CC(C)C[C@H](NC(=O)C[C@H](O)[C@H](CC(C)C)NC(=O)[C@H](Cc1c[nH]cn1)NC(=O)CNC(=O)[C@@H](NC(=O)[C@H](C)NC(=O)[C@H](Cc1c[nH]c2ccccc12)NC(=O)[C@H](CCC(N)=O)NC(=O)[C@@H](Cc1ccccc1)NC(=O)CCOCCOCCOCCNC(=O)CN1CCN(CC(=O)O)CCN(CC(=O)O)CC1)C(C)C)C(N)=O [gallium-68 labelled] | microPET imaging | mouse PC-3 xenograft, PC-3 tumour | intravenous, 3.7 MBq, 30 min | – | maximum tumour uptake | 4.79 ± 0.98 %ID/g

A few entries again:
Compound | test | system | conditions | scale | endpoint | result
CCCC[C@H](NC(=O)CNC(=O)CNC(=O)CN1CCN(CC(=O)O)CCN(CC(=O)O)CC1)C(=O)N[C@H]1CC(=O)NCCCC[C@@H](C(N)=O)NC(=O)[C@H](Cc2c[nH]c3ccccc23)NC(=O)[C@H](CCCNC(=N)N)NC(=O)[C@@H](Cc2ccccc2)NC(=O)[C@H](Cc2c[nH]cn2)NC1=O [technetium-99m labelled] | – | C57 mouse, heart | iv, 0.037 MBq, 0.5 h | – | tissue uptake | 0.74 ± 0.2 %ID/g
CCCC[C@H](NC(=O)COCCOCCNC(=O)CN1CCN(CC(=O)O)CCN(CC(=O)O)CC1)C(=O)N[C@H]1CC(=O)NCCCC[C@@H](C(N)=O)NC(=O)[C@H](Cc2c[nH]c3ccccc23)NC(=O)[C@H](CCCNC(=N)N)NC(=O)[C@@H](Cc2ccccc2)NC(=O)[C@H](Cc2c[nH]cn2)NC1=O [copper-64 labelled] | – | C57 mice, blood | intravenous, 0.37 MBq, 4 h | – | tissue uptake | 0.2 ± 0.03 %ID/g
